Assay results collected from several papers.
Numbered parts are unrelated; each lists some results of a single study. Substitutions count along the parent as printed.
Sequence of UniProt Q16584 (whole entry, looked up): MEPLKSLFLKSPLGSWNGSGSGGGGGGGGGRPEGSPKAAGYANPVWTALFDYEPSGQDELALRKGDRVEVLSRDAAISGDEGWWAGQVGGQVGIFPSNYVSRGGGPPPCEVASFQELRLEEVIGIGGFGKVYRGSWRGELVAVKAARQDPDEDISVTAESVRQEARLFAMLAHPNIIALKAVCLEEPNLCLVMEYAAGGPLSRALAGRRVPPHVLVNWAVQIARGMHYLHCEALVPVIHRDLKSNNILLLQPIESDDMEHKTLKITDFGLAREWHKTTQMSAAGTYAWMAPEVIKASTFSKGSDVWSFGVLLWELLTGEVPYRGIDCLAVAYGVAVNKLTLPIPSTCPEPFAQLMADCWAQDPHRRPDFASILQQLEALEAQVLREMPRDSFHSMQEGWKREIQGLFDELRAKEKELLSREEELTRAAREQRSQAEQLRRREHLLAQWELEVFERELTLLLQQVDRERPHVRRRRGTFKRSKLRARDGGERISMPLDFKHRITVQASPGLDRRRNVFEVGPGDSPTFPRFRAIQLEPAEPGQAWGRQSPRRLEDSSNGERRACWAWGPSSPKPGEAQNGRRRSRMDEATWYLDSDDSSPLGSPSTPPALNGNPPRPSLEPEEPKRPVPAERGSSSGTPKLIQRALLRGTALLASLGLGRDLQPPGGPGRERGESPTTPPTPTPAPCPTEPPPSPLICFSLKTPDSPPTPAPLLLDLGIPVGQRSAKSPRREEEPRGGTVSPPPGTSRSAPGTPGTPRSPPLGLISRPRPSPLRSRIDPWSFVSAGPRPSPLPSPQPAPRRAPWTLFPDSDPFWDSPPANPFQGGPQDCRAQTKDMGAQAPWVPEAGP

Sample 1
Target: inorganic phosphate, free oxyanion
Technique: microfluidic competitive inhibition
Medium: in vitro, cell-free expressed
Tested at: not given
Notes: derived from inhibition constants, unchanged parent 615000 nM
Direction: lower = stronger binding
Starting sequence: PafA, mature enzyme, eGFP fusion (Elizabethkingia meningoseptica, UniProt Q9KJX5); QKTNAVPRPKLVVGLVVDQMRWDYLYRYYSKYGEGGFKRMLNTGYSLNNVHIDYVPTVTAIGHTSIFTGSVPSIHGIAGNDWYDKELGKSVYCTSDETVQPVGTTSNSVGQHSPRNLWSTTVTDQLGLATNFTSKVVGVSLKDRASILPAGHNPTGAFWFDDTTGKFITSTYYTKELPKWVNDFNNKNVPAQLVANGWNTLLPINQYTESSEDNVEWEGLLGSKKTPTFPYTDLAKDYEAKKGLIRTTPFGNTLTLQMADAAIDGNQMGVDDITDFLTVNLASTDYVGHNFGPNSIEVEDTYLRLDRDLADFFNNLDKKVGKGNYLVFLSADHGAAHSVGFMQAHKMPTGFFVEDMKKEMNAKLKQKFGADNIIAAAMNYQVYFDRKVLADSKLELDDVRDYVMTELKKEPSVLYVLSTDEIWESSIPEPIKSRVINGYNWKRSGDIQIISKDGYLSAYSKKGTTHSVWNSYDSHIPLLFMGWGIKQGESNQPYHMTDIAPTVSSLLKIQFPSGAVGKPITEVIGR
| Substitution | phosphate dissociation constant [µM] |
| --- | --- |
| G156A | 518 |
| T171G | 558 |
| A191V | 624 |
| T248V | 540 |
| L25V | 572 |
| D311G | 586 |
| S113G | 436 |
| K175V | 659 |
| F313V | 635 |
| Y54G | 41.4 |
| N252V | 455 |
| T120V | 497 |
| G76A | 488 |
| M347G | 355 |
| M378G | 665 |
| M258V | 660 |

Sample 2
Target: OGT, full length, His-tagged (human)
Technique: phage display, sequencing
Medium: in vitro
Tested at: 1 µg OGT
Notes: single substitutions, 15-mer displayed peptide, unchanged parent 5.27
Reference: input library
Direction: higher = stronger binding
Starting sequence: peptide; GDFPVMFMPKYSIIY
| Substitution | fold enrichment [fold] |
| --- | --- |
| V5Q | 5.44 |
| M8N | 0.765 |
| M6P | 1.58 |
| V5M | 6.41 |
| F7N | 0.746 |
| S12G | 0.831 |
| K10I | 1.43 |
| P9S | 3.81 |

Sample 3
Target: PABPC1L2, full length, GST fusion (mouse, UniProt A0ABA7IW68)
Technique: RNAcompete
Molecule type: RNA
Medium: in vitro
Tested at: 20 nM
Notes: 7-mer, probes averaged, single round
Reference: mean of 7-mers
Direction: higher = stronger binding
Residues (chain): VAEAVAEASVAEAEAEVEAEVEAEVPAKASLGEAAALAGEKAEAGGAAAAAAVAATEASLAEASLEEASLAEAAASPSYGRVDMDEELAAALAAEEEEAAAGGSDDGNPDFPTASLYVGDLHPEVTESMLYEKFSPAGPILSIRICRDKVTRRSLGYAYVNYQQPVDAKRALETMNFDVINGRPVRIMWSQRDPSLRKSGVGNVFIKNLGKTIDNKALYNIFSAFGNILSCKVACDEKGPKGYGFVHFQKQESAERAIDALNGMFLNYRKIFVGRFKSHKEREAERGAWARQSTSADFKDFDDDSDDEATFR
| Oligonucleotide | 7-mer Z-score |
| --- | --- |
| UUAUGAC | -0.021 |
| ACUCUCC | -0.387 |
| CAUGCAG | -0.00652 |
| AUUAAAG | 0.8 |
| AGAGCGA | -0.0645 |
| AGCAGUC | 0.0189 |
| GAACUGG | 0.0968 |
| GAUUUUA | -0.164 |

Further values, each from its own experiment
| Compound | target | effect on | technique | tested at | measurement | value |
| --- | --- | --- | --- | --- | --- | --- |
| Cn1cncc1[C@@](O)(COc1ccc(C#N)cc1-c1ccc(OC(F)(F)F)cc1)c1ccc(C#N)cc1 | Mitogen-activated protein kinase kinase kinase 11 (MAP3K11, Homo sapiens, UniProt Q16584) | cell-free assay | competition with immobilised ligand | 1 µM | remaining binding | 100% |
